Results of several laboratories.
Organism: Pseudomonas aeruginosa

SMILES = CCCCCCCC(=O)N[C@@H](CCN)C(=O)N[C@H](C(=O)N[C@@H](CCN)C(=O)N[C@H]1CCNC(=O)[C@H]([C@@H](C)O)NC(=O)[C@H](CCN)NC(=O)[C@H](CCN)NC(=O)[C@H](CCCCCC)NC(=O)[C@@H](Cc2ccccc2)NC(=O)[C@H](CCN)NC1=O)[C@@H](C)O; test = broth microdilution; test system = PAO1, colistin-susceptible; MIC = < 0.125 µg/mL
SMILES = CC[C@H](C)[C@H](NC(=O)[C@H](CCCCN)NC(=O)[C@H](CCCCN)NC(=O)[C@H](Cc1ccccc1)NC(=O)[C@H](Cc1ccccc1)NC(=O)[C@H](CCCCN)NC(=O)[C@H](CCCCN)NC(=O)[C@H](Cc1ccccc1)NC(=O)[C@H](CCCNC(=N)N)NC(=O)[C@@H](N)CCCCN)C(=O)N[C@@H](CCCCN)C(=O)N[C@@H](CCCCN)C(=O)N[C@@H](CO)C(=O)N[C@H](C(=O)N[C@@H](CCCCN)C(=O)N[C@@H](CCCCN)C(=O)N[C@@H](CCCNC(=N)N)C(=O)N[C@H](C(=O)N[C@@H](CCCCN)C(=O)N[C@@H](CCCCN)C(=O)N[C@@H](CC(C)C)C(=O)N[C@@H](Cc1ccccc1)C(=O)N[C@@H](CCCCN)C(=O)N[C@@H](CCCCN)C(=O)N1CCC[C@H]1C(=O)N[C@@H](CCCNC(=N)N)C(=O)N[C@H](C(=O)N[C@H](C(=O)N1CCC[C@H]1C(=O)N[C@H](C(=O)N[C@@H](CO)C(=O)N[C@H](C(=O)N1CCC[C@H]1C(=O)N[C@@H](Cc1ccccc1)C(=O)O)[C@@H](C)CC)[C@@H](C)CC)[C@@H](C)CC)C(C)C)C(C)C)C(C)C; test system = P1; setting = 20 h, together with: 100 mM NaCl; MIC = 4 µg/mL
SMILES = CC[C@H](C)[C@H](NC(=O)[C@@H](CCCNC(=N)N)NC(=O)[C@H](CCCNC(=N)N)NC(=O)[C@@H](NC(=O)[C@H](Cc1c[nH]c2ccccc12)NC(=O)[C@H](CCCNC(=N)N)NC(=O)[C@@H]1CCCN1C(=O)[C@H](CCCNC(=N)N)NC(=O)[C@@H]1CCCN1C(=O)[C@H](CC(C)C)NC(=O)[C@H](Cc1ccc(O)cc1)NC(=O)[C@@H]1CCCN1C(=O)[C@@H]1CCCN1C(=O)[C@H](CCCCN)NC(=O)[C@H](CC(=O)O)NC(=O)[C@@H](N)C(C)C)[C@@H](C)O)C(=O)N[C@@H](Cc1ccc(O)cc1)C(=O)N[C@@H](CC(N)=O)C(=O)N[C@H](CCCNC(=N)N)C(N)=O; test = broth microdilution; test system = DSM 1117; setting = 18 h, 37 °C, 25% MHB2; MIC = > 128 µg/mL
SMILES = CN[C@H](CC(C)C)C(=O)N[C@H]1C(=O)N[C@@H](CC(N)=O)C(=O)N[C@H]2C(=O)N[C@H]3C(=O)N[C@H](C(=O)N[C@H](C(=O)NCC(N)=O)c4cc(O)cc(O)c4-c4cc3ccc4O)[C@H](O)c3ccc(c(Cl)c3)Oc3cc2cc(c3O[C@@H]2O[C@H](CO)[C@@H](O)[C@H](O)[C@H]2O[C@H]2C[C@](C)(NCc3ccc(OCc4cn(CC(=O)N[C@H](C(=O)N[C@@H](CCN)C(=O)N[C@H]5CCNC(=O)[C@H]([C@@H](C)O)NC(=O)[C@H](CCN)NC(=O)[C@H](CCN)NC(=O)[C@H](CC(C)C)NC(=O)[C@@H](CC(C)C)NC(=O)[C@H](CCN)NC5=O)[C@@H](C)O)nn4)c(OC)c3)[C@H](O)[C@H](C)O2)Oc2ccc(cc2Cl)[C@H]1O; test = broth microdilution; test system = ATCC 27736, cation-adjusted Mueller-Hinton broth; MIC = 6 µM
SMILES = CC(C)C[C@H](NC(=O)[C@H](CCCCN)NC(=O)C1CCC=CCCC(NC(=O)[C@H](CCCCN)NC(=O)[C@@H](N)CC(C)C)C(=O)N[C@@H](CCCCN)C(=O)NC2CCC=CCCC(NC(=O)[C@H](CCCCN)NC(=O)CNC(=O)[C@H]3CCCN3C(=O)[C@H](CCCCN)NC2=O)C(=O)N[C@@H](CCCCN)C(=O)N1)C(N)=O (stereo partly shown); test = broth microdilution; test system = ATCC 9027, Mueller-Hinton broth; setting = 18 h, 37 °C; MIC = 64 µM
SMILES = CC[C@H](C)[C@H](NC(=O)[C@H](Cc1c[nH]c2ccccc12)NC(=O)[C@H](Cc1ccc(O)cc1)NC(=O)[C@H](CCCCN)NC(=O)[C@H](CC(C)C)NC(=O)[C@H](CO)NC(=O)[C@@H](N)Cc1ccccc1)C(=O)N[C@@H](CCCNC(=N)N)C(=O)N[C@@H](Cc1ccc(O)cc1)C(=O)N[C@@H](CCCCN)C(=O)N[C@@H](CCCNC(=N)N)C(=O)N[C@@H](CCC(N)=O)C(=O)NCC(=O)N[C@@H](C)C(=O)N[C@@H](C)C(=O)N[C@@H](CCCNC(=N)N)C(=O)N[C@@H](Cc1ccccc1)C(N)=O; test = broth dilution; test system = ATCC 27853; MIC = > 100 µM
SMILES = CCCCCCCC(=O)N[C@@H](CCN)C(=O)N[C@H](C(=O)N[C@@H](CCN)C(=O)N[C@H]1CCNC(=O)[C@H]([C@@H](C)O)NC(=O)[C@H](CCN)NC(=O)[C@H](CCN)NC(=O)[C@H](Cc2ccccc2)NC(=O)[C@@H](CCCCCC)NC(=O)[C@H](CCN)NC1=O)[C@@H](C)O; test = broth microdilution; test system = colistin-resistant isolates; MIC = 0.25 to 0.5 µg/mL
SMILES = CN[C@@H]1[C@H](O)[C@H](NC)[C@H]2O[C@]3(O)[C@H](O[C@@H]2[C@H]1O)O[C@H](C)C[C@H]3NC(=O)Cc1cscn1; test = microbial growth, broth dilution; test system = PAO1; MIC = > 200 µg/mL
SMILES = C#CCNC(=O)[C@H]1NC(=O)[C@H]2NC(=O)[C@H](NC(=O)[C@@H]3NC(=O)[C@H](CC(N)=O)NC(=O)[C@H](NC(=O)[C@@H](CC(C)C)NC)[C@H](O)c4ccc(c(Cl)c4)Oc4cc3cc(c4O[C@@H]3O[C@H](CO)[C@@H](O)[C@H](O)[C@H]3O[C@H]3C[C@](C)(N)[C@H](O)[C@H](C)O3)Oc3ccc(cc3Cl)[C@H]2O)c2ccc(O)c(c2)-c2c(O)cc(O)cc21; test = broth microdilution; test system = ATCC 35218, cation-adjusted Mueller-Hinton broth; MIC = 22 µM
SMILES = CC(C)C[C@H](NC(=O)[C@H](CCCNC(=N)N)NC(=O)[C@H](C)NC(=O)[C@H](CC(C)C)NC(=O)[C@H](CCCNC(=N)N)NC(=O)[C@H](C)NC(=O)[C@H](CCCCN)NC(=O)[C@H](CC(C)C)NC(=O)[C@H](CCCNC(=N)N)NC(=O)[C@H](Cc1ccc(O)cc1)NC(=O)[C@H](CC(C)C)NC(=O)[C@H](CCCNC(=N)N)NC(=O)[C@H](C)NC(=O)[C@H](CCCNC(=N)N)NC(=O)[C@H](CC(C)C)NC(=O)[C@H](CCCCN)NC(=O)[C@H](C)NC(=O)[C@H](CC(C)C)NC(=O)[C@H](CCCNC(=N)N)NC(=O)[C@H](C)NC(=O)[C@@H](N)CCCCN)C(N)=O; test system = ATCC 27853; setting = 24 h; MIC = 4 µM
SMILES = CN[C@H](CC(C)C)C(=O)N[C@H]1C(=O)N[C@@H](CC(N)=O)C(=O)N[C@H]2C(=O)N[C@H]3C(=O)N[C@H](C(=O)N[C@H](C(=O)NCc4cn(CCCCC(=O)N[C@H](C(=O)N[C@@H](CCN)C(=O)N[C@H]5CCNC(=O)[C@H]([C@@H](C)O)NC(=O)[C@H](CCN)NC(=O)[C@H](CCN)NC(=O)[C@H](CC(C)C)NC(=O)[C@@H](CC(C)C)NC(=O)[C@H](CCN)NC5=O)[C@@H](C)O)nn4)c4cc(O)cc(O)c4-c4cc3ccc4O)[C@H](O)c3ccc(c(Cl)c3)Oc3cc2cc(c3O[C@@H]2O[C@H](CO)[C@@H](O)[C@H](O)[C@H]2O[C@H]2C[C@](C)(N)[C@H](O)[C@H](C)O2)Oc2ccc(cc2Cl)[C@H]1O; test = broth microdilution; test system = ATCC 27853, cation-adjusted Mueller-Hinton broth; MIC = 13 µM
SMILES = CC[C@H](C)[C@H](NC(=O)[C@@H](CCCNC(=N)N)NC(=O)[C@H](CCCNC(=N)N)NC(=O)[C@@H]1CCCN1C(=O)[C@@H]1CCCN1C(=O)[C@H](Cc1c[nH]cn1)NC(=O)[C@@H]1CCCN1C(=O)[C@H](CCCNC(=N)N)NC(=O)[C@@H]1CCCN1C(=O)[C@H](CC(C)C)NC(=O)[C@H](Cc1ccc(O)cc1)NC(=O)[C@@H]1CCCN1C(=O)[C@@H]1CCCN1C(=O)[C@H](CCCCN)NC(=O)[C@H](CC(=O)O)NC(=O)[C@@H](N)C(C)C)C(=O)N[C@@H](Cc1ccc(O)cc1)C(=O)N[C@@H](CC(N)=O)C(=O)N[C@H](CCCNC(=N)N)C(N)=O; test = broth microdilution; test system = DSM 1117; setting = 18 h, 37 °C, 25% MHB2; MIC = 128 µg/mL
SMILES = C#CCOc1ccc(CN[C@@]2(C)C[C@H](O[C@H]3[C@H](Oc4c5cc6cc4Oc4ccc(cc4Cl)[C@@H](O)[C@@H](NC(=O)[C@@H](CC(C)C)NC)C(=O)N[C@@H](CC(N)=O)C(=O)N[C@H]6C(=O)N[C@H]4C(=O)N[C@H](C(=O)N[C@H](C(=O)N[C@@H](CCCNC(=N)N)C(N)=O)c6cc(O)cc(O)c6-c6cc4ccc6O)[C@H](O)c4ccc(c(Cl)c4)O5)O[C@H](CO)[C@@H](O)[C@@H]3O)O[C@@H](C)[C@H]2O)cc1OC; test = broth microdilution; test system = ATCC 17978, cation-adjusted Mueller-Hinton broth; MIC = 72 µM
SMILES = CC[C@H](C)[C@H](NC(=O)[C@H](CCCCN)NC(=O)[C@@H](NC(=O)[C@@H](NC(=O)[C@H](CC(C)C)NC(=O)[C@H](CCCNC(=N)N)NC(=O)[C@@H](NC(=O)[C@H](CC(C)C)NC(=O)[C@H](CCCNC(=N)N)NC(=O)CNC(=O)[C@H](Cc1ccccc1)NC(=O)[C@@H](N)CCCNC(=N)N)[C@@H](C)CC)[C@@H](C)CC)C(C)C)C(=O)N[C@@H](C)C(=O)N[C@@H](CCCNC(=N)N)C(=O)N[C@@H](CCCNC(=N)N)C(=O)N[C@@H](C)C(=O)N[C@@H](Cc1c[nH]cn1)C(=O)N[C@@H](CCCNC(=N)N)C(=O)N[C@@H](C)C(=O)N[C@@H](CCCNC(=N)N)C(=O)N[C@@H](CO)C(=O)N[C@@H](C)C(=O)N[C@H](C(=O)N[C@@H](CCCCN)C(=O)N[C@@H](C)C(=O)N[C@@H](C)C(=O)N[C@@H](CO)C(=O)N[C@@H](CC(N)=O)C(=O)N[C@H](C(=O)N[C@@H](C)C(=O)N[C@@H](C)C(=O)N[C@@H](CC(C)C)C(=O)N[C@@H](C)C(=O)N[C@@H](Cc1c[nH]cn1)C(=O)NCC(=O)N[C@@H](C)C(=O)O)C(C)C)C(C)C; test = bacterial growth, broth microdilution; test system = cation-adjusted Mueller Hinton broth; setting = 18 h, 37 °C; MIC = 1.03 µM
SMILES = CN[C@H](CC(C)C)C(=O)N[C@H]1C(=O)N[C@@H](CC(N)=O)C(=O)N[C@H]2C(=O)N[C@H]3C(=O)N[C@H](C(=O)N[C@H](C(=O)NCc4cn(CC(=O)N[C@H](C(=O)N[C@@H](CCN)C(=O)N[C@H]5CCNC(=O)[C@H]([C@@H](C)O)NC(=O)[C@H](CCN)NC(=O)[C@H](CCN)NC(=O)[C@H](CC(C)C)NC(=O)[C@@H](CC(C)C)NC(=O)[C@H](CCN)NC5=O)[C@@H](C)O)nn4)c4cc(O)cc(O)c4-c4cc3ccc4O)[C@H](O)c3ccc(c(Cl)c3)Oc3cc2cc(c3O[C@@H]2O[C@H](CO)[C@@H](O)[C@H](O)[C@H]2O[C@H]2C[C@](C)(N)[C@H](O)[C@H](C)O2)Oc2ccc(cc2Cl)[C@H]1O; test = broth microdilution; test system = ATCC 10145, cation-adjusted Mueller-Hinton broth; MIC = > 51 µM
SMILES = CC[C@H](C)[C@H](NC(=O)[C@@H](CCCNC(=N)N)NC(=O)[C@H](CCCNC(=N)N)NC(=O)[C@@H](NC(=O)[C@H](Cc1c[nH]c2ccccc12)NC(=O)[C@H](CCCNC(=N)N)NC(=O)[C@@H]1CCCN1C(=O)[C@H](CCCNC(=N)N)NC(=O)[C@@H]1CCCN1C(=O)[C@H](CC(C)C)NC(=O)[C@H](Cc1ccc(O)cc1)NC(=O)[C@@H]1CCCN1C(=O)[C@@H]1CCCN1C(=O)[C@H](CCCCN)NC(=O)[C@H](CC(=O)O)NC(=O)[C@@H](N)C(C)C)C(C)C)C(=O)N[C@@H](Cc1ccc(O)cc1)C(=O)N[C@@H](CC(N)=O)C(=O)N[C@H](CCCNC(=N)N)C(N)=O; test = broth microdilution; test system = DSM 1117; setting = 18 h, 37 °C, 25% MHB2; MIC = 128 µg/mL

For quick reference, copied from above:
SMILES = CCCCCCCC(=O)N[C@@H](CCN)C(=O)N[C@H](C(=O)N[C@@H](CCN)C(=O)N[C@H]1CCNC(=O)[C@H]([C@@H](C)O)NC(=O)[C@H](CCN)NC(=O)[C@H](CCN)NC(=O)[C@H](Cc2ccccc2)NC(=O)[C@@H](CCCCCC)NC(=O)[C@H](CCN)NC1=O)[C@@H](C)O; test = broth microdilution; test system = colistin-resistant isolates; MIC = 0.25 to 0.5 µg/mL
